# Published values pooled from the literature.
# Each numbered part is a random draw from the data of one study; scales do not carry over between parts. Changes are numbered by the printed parent chain.

# Set 1 — technique: RNA Bind-n-Seq; form: RNA; sample: in vitro; concentration: 200 nM; notes: whole 134-nt RNA, ends assumed; with: 150 mM LiCl; baseline: input library; direction: higher = stronger binding; library: 7-deaza-guanosine replaces G
# Target: Ras GTPase-activating protein-binding protein 1, full length (G3BP1, Homo sapiens, UniProt Q13283)
# Chain of UniProt Q13283 (whole entry, looked up): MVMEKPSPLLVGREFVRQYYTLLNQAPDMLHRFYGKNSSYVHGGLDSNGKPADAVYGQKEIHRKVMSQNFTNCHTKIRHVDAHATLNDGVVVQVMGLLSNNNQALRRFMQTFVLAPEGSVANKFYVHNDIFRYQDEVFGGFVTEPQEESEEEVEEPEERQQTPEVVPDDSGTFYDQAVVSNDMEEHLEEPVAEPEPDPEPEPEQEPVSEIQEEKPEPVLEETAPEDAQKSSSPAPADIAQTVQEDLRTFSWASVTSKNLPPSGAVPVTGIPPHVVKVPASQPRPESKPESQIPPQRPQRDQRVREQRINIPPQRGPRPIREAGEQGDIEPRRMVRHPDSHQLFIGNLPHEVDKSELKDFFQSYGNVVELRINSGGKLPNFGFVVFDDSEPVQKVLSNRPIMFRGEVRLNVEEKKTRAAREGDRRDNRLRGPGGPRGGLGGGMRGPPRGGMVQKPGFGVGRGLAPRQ
# Shared flanks, not repeated: GGGAGUUCUACAGUCCGACGAUC … UGGAAUUCUCGGGUGUCAAGG
Oligonucleotide,log2 enrichment
UGGGAGGUGGAUUUUGUUUAUUUUUUUAGCUCAUUUCCAGGGGUGGGAAUUUUUUUUUAAUAUGUGUCAUGAAUAAAGUUCUUUUUGAAA,-0.419
ACCAUGCAGGUGGGCAUCUUUGGGGAGUGGGGCAAGGGGGGGAUAGGGAGGGGGGUAACACUUUGGGAACAGGUGGUCCCAGGUCGUUUC,-0.0367
CCUGUGCUACACAUCGUAUGUACCGAAUCGGGGUUUUUUGGUUUUUUGGGGUUUUUUGGGAAAGUAUUAUGUUACGCCGUUCGGAUCUGC,-0.00973
GUCCUGUGCUACACAUCGUAUGUACCGAAUCGGGGUUUUUUUGGGGUGGGGAAAGGGGAAAGUAUUAUGUUACGCCGUUCGGAUCUGCAC,0.44
UUGCGGCAGCCGCCCCCUUCUGCGCGGUCACGCCGAGCCAGCGCCUGGGCCUGGAACCGGGCCGUAGCCCCCCCAGUUUCGCCCACCACC,0.268
UGUGCUACACAUCGUAUGUACCGAAUCGGGGUUUUUUUGGUUUUUUUGGGGUUUUUUUGGGGAAAGUAUUAUGUUACGCCGUUCGGAUCU,1.62
AAAGCAAGAGAUGGCUAGUGCUUCAUCCAGCCAAAGAGGUAUGCUUGUUGCUUAAUUAAACCUUAAAGGUAACUUUGAGUUACUCCAGUA,-1.8
UUGCUGUCACCCGCUGCCUGUCUGCAGGAUCCCGGAUUCCGUAUCAGGGGACCGAAAUUAGUCGGAAAAUAGGAAGCAGGUGCUCGCUUG,-1.12
AGUCCUGUGCUACACAUCGUAUGUACCGAAUCGGGGAAAGGGGUUUGGGGUUUGGGGAAAGUAUUAUGUUACGCCGUUCGGAUCUGCACU,-0.751
CACAGACAACACGCACCCACACAGACACAGAGGGAAGGGGUUGGGAUGGGGACAGGGUGCACAGCAGGGCGGGGUAGGACCCCAUCCCCU,-0.906
CUGUGCUACACAUCGUAUGUACCGAAUCGGGGUUUUUUUGGGGUUUUUUUGGUUUUUUUGGGAAAGUAUUAUGUUACGCCGUUCGGAUCU,1.5

# Set 2 — technique: protein binding microarray; form: double-stranded DNA, one strand shown; sample: in vitro; concentration: not given; baseline: not given; direction: higher = stronger binding
# Target: Histone acetyltransferase KAT6A, winged helix 2, GST fusion (KAT6A, Homo sapiens, UniProt Q92794, residues 85-181)
# Notes: 8-mer, flanks averaged, mean of 2 arrays, mostly near background
# Target sequence (chain): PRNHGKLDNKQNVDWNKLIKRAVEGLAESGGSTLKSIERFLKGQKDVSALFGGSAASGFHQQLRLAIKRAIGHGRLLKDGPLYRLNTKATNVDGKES
Oligonucleotide,E-score
CGAGATCA,0.175
AGCATTCA,0.0495
AAGGAGAT,-0.0922
CCGTGTCA,0.0764
AATGCCAC,0.0722
ATATAGAT,-0.00697
CAGTATAC,-0.14
GGACGTCC,-0.126
CCTCACAA,-0.0136
GTTACATA,-0.0845
ACTGAAAC,0.0677
ATCGTAAT,-0.199
ATGAATTC,0.0855
ACAGGTAA,-0.117
GGAAACCC,0.162
CTGAGGCC,0.137
CTGAGTAC,-0.0662
AGCAAAGG,0.0457
CGACAAAA,0.187
GAGTGCGA,-0.00785

# Set 3 — target: Cln2 (Saccharomyces cerevisiae); read-out: peptide binding; technique: competitive growth sequencing; form: peptide; organism: Saccharomyces cerevisiae; strain: unfused Cln2 strain; notes: peptide tiling library; direction: direction not given
Sequence,enrichment score
KPITLDTTDFQESFVT,0.525
SDSTVTKLDFDLEP,0.78
ESSTVSEEDYFSSHRD,0.672
LKGRRLVFDN,-0.298
KDDDKAWEYEERDRRS,0.0711
TRRRLFVENDSP,-0.175
ISRLFPPRTPGWHQLQ,-2.19
TSPGPVLLHPSPSTTQ,0.355
EPKTLFLGAGDFQF,0.928
AGSAKRRLFGEDPPKE,-0.577
PFSENVSAVQKLDFSD,0.847
PLRKAKRARLCSSSSS,1.29
KRRLDLETDHQY,-0.209

# Set 4 — technique: DHFR PCA, deep sequencing; sample: yeast; with: (+)-ABA 4.8 µM; baseline: wild-type fitted maximum; direction: higher = stronger binding
# Target: ABI1, truncated, D143A, DHFR fusion (Arabidopsis thaliana)
# Notes: methotrexate growth selection, single substitutions
# Starting sequence: PYL1, truncated, DHFR fusion (Arabidopsis thaliana); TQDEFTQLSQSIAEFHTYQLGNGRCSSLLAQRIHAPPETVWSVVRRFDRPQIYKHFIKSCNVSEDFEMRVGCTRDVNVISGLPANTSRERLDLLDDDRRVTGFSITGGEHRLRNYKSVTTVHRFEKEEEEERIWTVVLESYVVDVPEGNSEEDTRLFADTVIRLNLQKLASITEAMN; partner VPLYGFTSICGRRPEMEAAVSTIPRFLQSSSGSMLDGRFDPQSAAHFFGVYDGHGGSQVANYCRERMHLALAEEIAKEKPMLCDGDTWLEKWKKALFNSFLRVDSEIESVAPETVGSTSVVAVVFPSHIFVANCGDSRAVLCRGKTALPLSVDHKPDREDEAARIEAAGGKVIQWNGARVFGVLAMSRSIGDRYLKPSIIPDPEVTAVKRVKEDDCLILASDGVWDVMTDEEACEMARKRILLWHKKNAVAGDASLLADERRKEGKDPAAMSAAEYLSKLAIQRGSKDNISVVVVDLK
Substitution,relative binding score [%]
Y18N,31.9
G71A,0.253
D48G,5.85
E174C,28.5
S59I,8.97
Q31A,-0.499
S80H,15.2
A175I,57.1
C72G,32.9
L166Q,0.756
S27E,7.6
V118E,0.445
T173G,15.8
N22E,80.1
D144I,-19
R88P,0.99
K58M,29.2
I162E,-16.2
E139W,40.5
T17K,49

# Set 5 — technique: RNA Bind-n-Seq; form: RNA; sample: in vitro; concentration: 365 nM; baseline: no-protein control; direction: higher = stronger binding
# Target: RNA binding protein fox-1 homolog 2, RRM domain, GST-SBP tag (RBFOX2, Homo sapiens, UniProt O43251-10, residues 100-194)
# Notes: natural RNA segment, single round, ends assumed
# Shared flanks, not repeated: GGGAGUUCUACAGUCCGACGAUC … UGGAAUUCUCGGGUGCCAA
# Construct (chain): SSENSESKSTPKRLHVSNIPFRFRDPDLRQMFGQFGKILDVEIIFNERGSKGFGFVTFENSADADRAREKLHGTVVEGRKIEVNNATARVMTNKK
Oligonucleotide,RBNS enrichment (R)
AGAUGGAAAGAGAUGAGCCUAAGGAUACCAGGUUCAAAACGGUUAUGACCAUACACACAGGCAUUUUACCUUAUGGAAGAGGAGACAGUUGUUCAUGGAAUUGAUGGGGG,0.557
UCUGAAAGACCCACAGCGAUCUGCCUCCUCAGCAUCCAGCGUGCUGGCUCCAGAGCUGCUGUUCCCAUCCACGCCAGUGGCCUCGGUCCCUUCUGUGCCAGGCAUUCUGG,0.273
CCACUCUGCUCCUUCCACCCAUGAAUUGUGUGUCUGUGUAUUUAAGAGAACUGAGACUAAUGUAUUUUCCAAAAUUUCCUAAGGCUUUCCCCCGUUGUUUACAUGUUGAA,0.656
GUGACCUCCACUAACCCCCACUUCCAUGCAUAUUGACGAGGGAUCUAGUCUAAGUAAGAAUGUCUUUUGCCUGCGCGUGGAGGCACAGUAGAAAUCUCAAGGCUUUACCC,0.781
UGAAGAGAGGUGAAAGGCACACUUUCAACCUGUCAUUCAGCGUUUCUUUUGAGCUUAGUCAGCUGUACCUUUUCAAUUAGUUCUUUUUCAACCAAUGUGUCACUAAAAGU,0.349
CACUCUUCCAAAAAGACAACAGAACUGGAAUGAGAGGCCUGGGUCUGUCUCCUGCCUUAGCAGGCCUAUCAAUUUCUUGUCAAUCUCUUUUUUUCCUUGCUCACAUUAAA,0.779
UUGUGCACAUAUUUCUGCUACCACCAAGACUGUAUUAUACAGAUAAAUAAACAACUUGAAACCUGUUCUCAGACUGUUACCCUUCAUAUGUCAGUGCCCUGCUCUCUCCA,0.653
UUAUAAGAUGAAGCGUAGUGAAUUGUACAGCUGUUGUAAUAAUGACCUAUUUCUAUAUAAAAUAAAAUUGUAUGGCUUAUGUGUAAAUUAUUUUGUAUCUGAGAUACCAG,0.535
UUGGUGCUGCUAAGUUUAGCCAUUAUGGUUUUUCCUUUCUCUCUCUUAAGCCUUAUUCUUCAACUAAAAGAUGAGGAUUAAGAGCAAGAAGUUGGGGGGGAUGUGAAAAU,0.299
GCUUCUGAACACUGCUUUCCACACAAGCACGGGCAAGUCCCCUUUACCCUUGGAUCAGCCAAGCCAGACUUGGAGCUUUGACAAGGAACGUUCCCGGGAAACGACCAAAC,0.249
AACUGCAUGCACUUCUCUCCCCAUCGCUCCACAACCUGAAACCGAGAAGGAGUUGCUGACCAGUGCCCACCCCGGCAGCCCGGGAGGAACACAGGCAGCUCCUUUCCCUU,2.21
CAUUCGCACUGCCUCUGUUGCUUCUGGCUGACCAGACCUCAUGGCCCUGCACUAGACACCCGACCCUUACUAGCCACCAGCCUUAAUUAAACACGGCCUUGGCCUAAGGC,0.349

# A few entries again (set 4):
Substitution,relative binding score [%]
V118E,0.445
T173G,15.8
N22E,80.1
D144I,-19
R88P,0.99
K58M,29.2
I162E,-16.2
